Measured values from different studies.
A part holds a random share of what one study measured. Positions count from the first letter of the parent shown.

Set 1 — method: protein-binding microarray; molecule type: double-stranded DNA, one strand shown; matrix: in vitro; tested at: 2540 nM top; setting: 60-bp whole probe; together with: salmon DNA 0.4 mg/ml; reference: random background probes; reading: higher = stronger binding; quantity: fitted relative affinity; shared flanks, not repeated: GCCTAGCAC … GTCTTGATTCGCTTGACGCTGCTG
Target: Interferon regulatory factor 3, full length, phosphomimetic (IRF3, Homo sapiens, UniProt Q14653, residues 1-427, S386D/S396D/S398D/S402D/T404D/S405D)
Residues (chain): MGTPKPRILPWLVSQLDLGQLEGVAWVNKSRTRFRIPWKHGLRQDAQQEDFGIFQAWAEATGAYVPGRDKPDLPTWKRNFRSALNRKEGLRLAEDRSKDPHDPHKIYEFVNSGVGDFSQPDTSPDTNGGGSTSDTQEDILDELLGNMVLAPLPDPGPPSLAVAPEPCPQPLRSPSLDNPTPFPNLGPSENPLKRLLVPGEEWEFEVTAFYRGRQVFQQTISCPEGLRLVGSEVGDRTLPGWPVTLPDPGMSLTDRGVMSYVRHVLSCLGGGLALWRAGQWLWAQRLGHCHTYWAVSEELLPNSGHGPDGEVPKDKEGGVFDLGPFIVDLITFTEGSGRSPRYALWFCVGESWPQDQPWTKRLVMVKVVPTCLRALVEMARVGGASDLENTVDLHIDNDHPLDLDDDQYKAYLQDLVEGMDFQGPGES
ACAGCCTTTCTAACTTGAAAGTGCTAG: 1.66 z-score
GACGGGCTGGACTTTCGGGACGTGCTA: -0.381 z-score
GAGGGACTGGGTATCGGGACGTGCTAG: -0.487 z-score
GACGGCTCCGGTTTCGGGACGTGCTAG: 2.38 z-score
GACGGTTTCTACTATCGGGACGTGCTA: 1.74 z-score
TTAGGTTTCGACACTGGGTTTGTGCTA: 2.4 z-score
CACGATCTCAGACTGGAGACGTGCTAG: 0.225 z-score

Set 2 — method: RNA Bind-n-Seq; molecule type: RNA; matrix: in vitro; tested at: 200 nM; setting: whole 134-nt RNA, ends assumed; together with: 150 mM KCl; reference: input library; reading: higher = stronger binding; quantity: log2 enrichment
Target: Fragile X messenger ribonucleoprotein 1, C-terminal low-complexity region (Fmr1, Mus musculus, UniProt P35922)
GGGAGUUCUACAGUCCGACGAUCCCUGUGCUACACAUCGUAUGUACCGAAUCGGCCCCCCCGGGGCCCCCCCGGCCCCCCCGGAAAGUAUUAUGUUACGCCGUUCGGAUCUGCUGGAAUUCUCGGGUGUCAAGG: -0.26
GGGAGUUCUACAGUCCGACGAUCUCCUGUGCUACACAUCGUAUGUACCGAAUCGGAAAAAAGGGAAAAAAGGGAAAAAAGGGGAAAGUAUUAUGUUACGCCGUUCGGAUCUGCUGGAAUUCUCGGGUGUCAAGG: -0.441
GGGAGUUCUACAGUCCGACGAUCCAAGUCCUGUGCUACACAUCGUAUGUACCGAAUCGGAAAAAAAGGUUUUUGGUGGAAAGUAUUAUGUUACGCCGUUCGGAUCUGCACUUCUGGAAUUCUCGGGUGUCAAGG: -0.988
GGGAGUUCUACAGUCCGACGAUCUCCUGUGCUACACAUCGUAUGUACCGAAUCGGGAAAAAAGGGAAAAAAGGGAAAAAAGGAAAGUAUUAUGUUACGCCGUUCGGAUCUGCAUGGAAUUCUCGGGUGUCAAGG: -0.184
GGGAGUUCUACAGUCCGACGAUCUGGGAGGUGGAUUUUGUUUAUUUUUUUAGCUCAUUUCCAGGGGUGGGAAUUUUUUUUUAAUAUGUGUCAUGAAUAAAGUGGUUUUUGAAAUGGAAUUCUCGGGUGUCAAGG: 0.136
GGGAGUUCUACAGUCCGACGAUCAGUCCUGUGCUACACAUCGUAUGUACCGAAUCGGAAAGGAAAAAAAGGAAAAAAAGGAAAGUAUUAUGUUACGCCGUUCGGAUCUGCACUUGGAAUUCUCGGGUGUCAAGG: -0.604

Set 3 — target: CCNF, cyclin fold, Cln2 fusion (human); method: yeast growth competition, sequencing; matrix: yeast; setting: strong parent motif; reference: not given; reading: higher = stronger binding; quantity: normalised enrichment score
Parent: MICAL3 docking peptide (human); LQLRRQLSFSEDS
F9Y: 2.13
E11D: 5.13
R4F: 2.14
L7Y: -0.0981
D12Y: 6.6
Q2M: 4.94
D12K: 4.78
D12L: 5.4

Further values, each from its own experiment
PhoQ, residues 284 288 289 292 302 303 SVTLVV — fold induction (PhoP, residues 12 14 15 18 19 LHTVM (Escherichia coli, UniProt P23836); Sort-seq, item: YFP reporter; E. coli; PhoQ-PhoP variant library, together with: 10 µM Mg2+; reference: high Mg2+ state, higher = stronger signaling): 13.6
